Experimental data gathered from unrelated publications.
Every numbered part comes from another study and shows a few of its results, in no order. Changes are numbered by the printed parent chain.

Set 1
Target: RNA binding protein fox-1 homolog 2, RRM domain, GST-SBP tag (RBFOX2, Homo sapiens, UniProt O43251-10, residues 100-194)
Method: RNA Bind-n-Seq
Molecule type: RNA
Medium: in vitro
Tested at: 365 nM
Setting: natural RNA segment, single round, ends assumed
Reference: no-protein control
Reading: higher = stronger binding
Target sequence (chain): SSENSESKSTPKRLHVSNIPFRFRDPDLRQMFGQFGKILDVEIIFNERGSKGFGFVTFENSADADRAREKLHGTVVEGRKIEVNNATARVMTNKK
| Sequence | RBNS enrichment (R) |
| --- | --- |
| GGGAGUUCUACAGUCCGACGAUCAAGAAUAAAAGAAUUCUUUUAAUUUCAGGGAAGAUCAGAAAAGAAAGCCUAAAGCCCUUUAGCGUUGUGAACCUCAGUAGUAGCUGAAAGAGAAGCUGCCACAGGUUGUAUGGAAUUCUCGGGUGCCAA | 0.568 |
| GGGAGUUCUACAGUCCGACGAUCCUGUCUCUUUCCACUUUGUUGGCCCUUCCAGUGGGAUUAUCGAGCAUGUUGUUUUUUCAUAGUGCCUUUUUCCUUAUUUCAAGGGUUGCUUCUGAGUGGUGUUUUUUUUUUGGAAUUCUCGGGUGCCAA | 0.428 |
| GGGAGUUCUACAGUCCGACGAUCGCAGGCCUUUGCGUUUUUAUCCUUCAUAACCUUCAUCUUAAUUUGAACUUGUAGCUUGGACUUUAAGGUAGCAUGGCUCUAUUGCUGUCAAUUUACUGUUUCACUGCACAUGGAAUUCUCGGGUGCCAA | 0.612 |
| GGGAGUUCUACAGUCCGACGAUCUUCCCAGCUGCUGUAACGGAGCCACCUCCAACUCUAACAAUAAACCAAGUUCAUUGCAGAUAGUGUAGUGCUGCUUAGGCUUUUUCUGACUCCAUACAUGCUUAGUUACUUGGAAUUCUCGGGUGCCAA | 0.324 |
| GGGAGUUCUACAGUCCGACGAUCCCACCGUUAGGAUUCAGGCAGCAGUGUCUGUACCUCGGGUGGGAGGGAUGGGGCCAUCUCCUUCACCGUGGCUACCAUUGUCACUCGUAGGGGAUGUGGAGUGAGAACAGUGGAAUUCUCGGGUGCCAA | 0.841 |
| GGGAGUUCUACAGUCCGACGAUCGUGGAAUCACAAGUUGCUGUGAUACUUCAUUUUUAAAUUGUGAACUUUGUACAAAUUUUGUCAUGCUGGAUGUUAACACAUCUUACUCUAAAUAAACAAGGUGUUGCCACUGGAAUUCUCGGGUGCCAA | 0.603 |
| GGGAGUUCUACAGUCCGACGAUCGUGAAAGCUGAACAUUACCGAUAAGGCACAGGUUCCUUUUGAACAUGUUUUUCUCACUUAGGUCUCACAAAAGUAUGAUUUUUCUCAAAAGUCCUGUAUUUAUGUAUUUUUGGAAUUCUCGGGUGCCAA | 0.449 |
| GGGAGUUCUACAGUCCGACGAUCCAGGAGAAACCGUGCCCAUUUAGAAGAUGGGGCAUUAACUUGUGUAACAGGACUUGGUAGUUUCCACCUAGGAAAACCGAGCUCUCUGGUGUGGUUCGCAGUACUGAGGGUGGAAUUCUCGGGUGCCAA | 0.361 |
| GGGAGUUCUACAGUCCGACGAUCCUGGCCCCCUUGCUUGUGGCUAGGCCAGCCUAGGAUGUGGGUUCUGUGGAGGAGAGGCGGGGUAAUGGGGAGGCUGAGGGCACCUCUUCACUGCCCCUCUCCCUCAAGCCUGGAAUUCUCGGGUGCCAA | 2.75 |
| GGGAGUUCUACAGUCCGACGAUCAGACUCUCCAGGACUGAGGACAGAGCUGCUCUUCUUCUUCUACGUUACUGUGGCCCUCUUGUCUGGCAGCCUGGAGCCCAGGGAGGGACAGGGGCUUAUAGCUGCUGUAUUGGAAUUCUCGGGUGCCAA | 0.764 |
| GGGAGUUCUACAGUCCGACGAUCAGCCCAGGCAGGGUGAGCAGUCCCAGUGGUCCUAGUGCCGCAUCAGAUCCAGGUGGGUGAGGGCAGGAGGCCCCUGCGGAGGCAGCGUGGAUCUGCCCACACAUAGGCUAUGGAAUUCUCGGGUGCCAA | 0.344 |
| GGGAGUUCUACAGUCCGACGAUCAAAGGGAACACACCCAAUUUUAUGUUAAGGUGAAACCAGCAGUUUGCUUCUUUUAUUAGUAAUGUGGAUUGAUGUUUUCUCAGAGUAACUCGUUGUCUUUUCGCUUGAAAUGGAAUUCUCGGGUGCCAA | 0.27 |

Set 2
Target: CCNB1, cyclin fold, Cln2 fusion (human)
Method: yeast growth competition, sequencing
Medium: yeast
Setting: strong parent motif
Reference: not given
Reading: higher = stronger binding
Starting sequence: E2F1 docking peptide (human); PPVKRRLDLETDH
| Change | normalised enrichment score |
| --- | --- |
| R6W | 0.624 |
| D8Y | 1.08 |
| P2Q | 0.336 |
| P2Y | 0.992 |
| L7E | -0.117 |
| R5H | 0.176 |
| R6M | 0.717 |
| V3R | 0.51 |
| D12E | 1.36 |
| K4E | 1.42 |
| P2D | 1.7 |
| V3N | 0.758 |
| V3E | 0.467 |
| P1W | 1.85 |

Set 3
Target: Interferon regulatory factor 7, full length, phosphomimetic (IRF7, Homo sapiens, UniProt Q92985, residues 1-503, S101K/S471D/S472D/S475D/S476D/S477D/S483D/S484D/S487D)
Method: protein-binding microarray
Molecule type: double-stranded DNA, one strand shown
Medium: in vitro
Tested at: 250 nM
Setting: 60-bp whole probe
Added: salmon DNA 0.4 mg/ml
Reference: random background probes
Reading: higher = stronger binding
Constant ends, left off below: GCCTAGCAC … GTCTTGATTCGCTTGACGCTGCTG
Residues (chain): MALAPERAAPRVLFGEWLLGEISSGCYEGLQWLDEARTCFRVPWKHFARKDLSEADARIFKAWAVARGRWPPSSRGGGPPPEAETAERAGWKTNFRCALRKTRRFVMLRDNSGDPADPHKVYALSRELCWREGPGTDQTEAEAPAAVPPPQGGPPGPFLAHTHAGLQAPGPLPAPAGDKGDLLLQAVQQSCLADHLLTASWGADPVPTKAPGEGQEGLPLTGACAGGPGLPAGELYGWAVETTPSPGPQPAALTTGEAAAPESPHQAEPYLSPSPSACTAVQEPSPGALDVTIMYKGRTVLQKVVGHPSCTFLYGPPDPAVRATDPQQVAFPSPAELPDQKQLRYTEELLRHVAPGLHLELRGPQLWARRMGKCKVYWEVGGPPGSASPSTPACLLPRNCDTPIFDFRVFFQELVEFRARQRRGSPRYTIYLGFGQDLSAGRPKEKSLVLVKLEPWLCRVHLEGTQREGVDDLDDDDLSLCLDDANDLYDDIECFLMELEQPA
| Sequence | log fluorescence [z-score] |
| --- | --- |
| TCAATTTTTTTTATTTAACTGTGCTAG | 0.672 |
| GACGATATGAGTCTCGAGACGTGCTAG | 0.259 |
| TTAGGTTTCCGGTTTCGGTTAGTGCTA | 10.8 |
| GGCGGTTTCGGACTGGGGACGTGCTAG | 3.46 |
| TTAGAACTGAGACTGGAATAGTGCTAG | -0.269 |
| GACGAAGTGGGGTATCGAGACGTGCTA | -0.721 |
| TTAGGTCCCCTACTGCTTTAGTGCTAG | 0.121 |
| TTAGGTATCCTTTTCCTTTGGTGCTAG | 1.52 |
| TTAGTACTGGGTTTCGGTTAGTGCTAG | 7.06 |
| GACCGTATCGGGTTTCGGGACGTGCTA | 2.85 |
| TTAGAACTGGGGACTGGGTTAGTGCTA | -0.438 |
| GACGAACTAGGGTATCGAGACGTGCTA | -0.235 |
| CGCAGGGCAGGCTTCGGCCGGTGCTAG | -1.44 |
| TTAGACCTCAGACTGGATTAGTGCTAG | 0.0799 |
| GACGGAATGCTTTTCCTGACGTGCTAG | -0.105 |
| TCATGTCTGTGTTTCCTACTGTGCTAG | 0.912 |

Set 4
Target: Prothrombin, mature alpha-thrombin (F2, Homo sapiens, UniProt P00734)
Method: aptamer microarray, sandwich
Molecule type: DNA with 2'F-ANA
Medium: in vitro
Tested at: 200 nM
Setting: whole 15-mer aptamer, many near background
Added: Cy3 exosite-II aptamer, 400 nM
Reading: higher = stronger binding
Sequence: GGTTGGTGTGGTTGG
| Modification | mean fluorescence intensity |
| --- | --- |
| 2'F-ANA at 2 3 7 | 874 a.u. |
| 2'F-ANA at 1 3 7 9 10 11 12 13 | 96.9 a.u. |
| 2'F-ANA at 2 4 5 7 9 10 12 13 15 | 51.7 a.u. |
| 2'F-ANA at 4 10 11 12 15 | 120 a.u. |
| 2'F-ANA at 2 3 4 8 11 12 15 | 760 a.u. |
| 2'F-ANA at 2 5 8 11 13 15 | 72.7 a.u. |
| 2'F-ANA at 3 5 6 9 11 12 | 183 a.u. |
| 2'F-ANA at 1 2 3 5 10 11 14 | 44.5 a.u. |
| 2'F-ANA at 1 2 3 5 11 12 14 15 | 47.2 a.u. |
| 2'F-ANA at 1 3 5 6 9 10 | 45.6 a.u. |
| 2'F-ANA at 1 2 4 6 7 8 9 10 11 15 | 53.5 a.u. |
| 2'F-ANA at 1 2 5 6 9 11 15 | 51.5 a.u. |
| 2'F-ANA at 1 3 5 10 12 15 | 46.7 a.u. |
| 2'F-ANA at 3 4 6 7 9 10 12 14 15 | 180 a.u. |
| 2'F-ANA at 3 5 9 11 14 15 | 54.5 a.u. |
| 2'F-ANA at 3 5 9 10 11 12 14 | 51.4 a.u. |
| 2'F-ANA at 2 4 6 10 11 12 13 14 | 73 a.u. |
| 2'F-ANA at 4 5 7 10 11 15 | 52.9 a.u. |
| 2'F-ANA at 2 5 6 7 10 15 | 53.2 a.u. |
| 2'F-ANA at 3 5 7 10 11 15 | 58.1 a.u. |
| 2'F-ANA at 6 7 12 14 | 250 a.u. |
| 2'F-ANA at 2 3 4 5 11 12 14 | 51.1 a.u. |
| 2'F-ANA at 1 2 3 12 14 | 96.3 a.u. |
| 2'F-ANA at 4 6 10 11 13 15 | 61.4 a.u. |
| 2'F-ANA at 2 5 6 8 10 11 14 | 45.6 a.u. |

Set 5
Target: Histone acetyltransferase KAT6A, winged helix 1, GST fusion (KAT6A, Homo sapiens, UniProt Q92794, residues 1-85)
Method: protein binding microarray
Molecule type: double-stranded DNA, one strand shown
Medium: in vitro
Tested at: not given
Setting: 8-mer, flanks averaged, mean of 2 arrays, mostly near background
Reference: not given
Reading: higher = stronger binding
Construct (chain): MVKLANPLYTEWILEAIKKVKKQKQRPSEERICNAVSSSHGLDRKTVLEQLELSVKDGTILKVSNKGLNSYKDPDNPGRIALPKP
| Sequence | E-score |
| --- | --- |
| GCGGGGTA | 0.298 |
| GGCCATAC | 0.114 |
| CGACGGAA | 0.386 |
| AATGCGAA | 0.0251 |
| TATGAACA | -0.193 |
| AGACCTTC | -0.0676 |
| GGACCAAC | 0.0279 |
| ACAAGAAG | -0.0594 |
| CACTGGCC | -0.0115 |
| ACGGGACT | 0.32 |
| GCTGACCC | 0.0262 |
| GGGCAGCA | -0.0841 |
| CTCTCGAC | -0.139 |
| ACAAGCGG | 0.169 |
| AGTAAGAG | -0.149 |
| ACAACAGC | 0.17 |
| CAAGAATG | -0.24 |
| ACAGCCGG | 0.268 |
| AAACATCG | -0.0652 |

Set 6
Target: ABI1, truncated, D143A, DHFR fusion (Arabidopsis thaliana)
Method: DHFR PCA, deep sequencing
Medium: yeast
Setting: methotrexate growth selection, single substitutions
Added: (+)-ABA 1.4 µM
Reference: wild-type fitted maximum
Reading: higher = stronger binding
Starting sequence: PYL1, truncated, DHFR fusion (Arabidopsis thaliana); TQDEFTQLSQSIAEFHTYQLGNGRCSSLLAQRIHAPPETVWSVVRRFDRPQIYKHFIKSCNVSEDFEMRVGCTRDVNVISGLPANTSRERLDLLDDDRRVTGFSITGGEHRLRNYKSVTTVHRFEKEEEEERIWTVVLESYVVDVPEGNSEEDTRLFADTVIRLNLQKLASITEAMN
| Change | relative binding score [%] |
| --- | --- |
| S171P | 8.88 |
| G102Y | -2.29 |
| G23A | 19.4 |
| L169T | -8.36 |
| L8C | 33 |
| F157N | -2.5 |
| Q31D | -2.26 |
| E4S | 39.8 |
| S59W | 4.48 |
| E38R | 9.74 |
| I57Q | 7.34 |
| V40G | 0.402 |
| E129I | 41.6 |

A few entries again (set 5):
| Sequence | E-score |
| --- | --- |
| GCGGGGTA | 0.298 |
| ACAGCCGG | 0.268 |
| GCTGACCC | 0.0262 |
| TATGAACA | -0.193 |
| ACAAGAAG | -0.0594 |
| CTCTCGAC | -0.139 |
| GGCCATAC | 0.114 |
| CAAGAATG | -0.24 |
| AATGCGAA | 0.0251 |
| CACTGGCC | -0.0115 |
| CGACGGAA | 0.386 |
| AAACATCG | -0.0652 |
| GGACCAAC | 0.0279 |
| ACAACAGC | 0.17 |
| GGGCAGCA | -0.0841 |
| AGACCTTC | -0.0676 |
